Measured values collected from several papers.
A part holds a random share of what one study measured.

Sample 1
Target: Replicase polyprotein 1ab, main protease (rep, Severe acute respiratory syndrome coronavirus 2, UniProt P0DTD1)
Observed: enzyme activity
Action: inhibitor
Tested at: 20 µM
Notes: primary screen
`Oc1cc2c(cc1C(c1ccc(C(F)(F)F)cc1)N1CCOCC1)OCO2` (stereo not shown) has an inhibition of 81.4%.
`S=c1nn[nH]n1-c1ccccc1` has an inhibition of 97.8%.
The inhibition of `O=C(/C=C/c1ccc(O)c2c1[C@@H](C(=O)O[C@H](Cc1ccc(O)c(O)c1)C(=O)O)[C@H](c1ccc(O)c(O)c1)O2)O[C@H](Cc1ccc(O)c(O)c1)C(=O)O` is reported as 90.8%.

Sample 2
Target: Interferon regulatory factor 3, full length, phosphomimetic (IRF3, Homo sapiens, UniProt Q14653, residues 1-427, S386D/S396D/S398D/S402D/T404D/S405D)
Technique: protein-binding microarray
Molecule type: double-stranded DNA, one strand shown
Sample: in vitro
Tested at: 2540 nM top
Notes: 60-bp whole probe
Added: salmon DNA 0.4 mg/ml
Reference: random background probes
Direction: higher = stronger binding
All sequences stand within: GCCTAGCAC … GTCTTGATTCGCTTGACGCTGCTG
Construct (chain): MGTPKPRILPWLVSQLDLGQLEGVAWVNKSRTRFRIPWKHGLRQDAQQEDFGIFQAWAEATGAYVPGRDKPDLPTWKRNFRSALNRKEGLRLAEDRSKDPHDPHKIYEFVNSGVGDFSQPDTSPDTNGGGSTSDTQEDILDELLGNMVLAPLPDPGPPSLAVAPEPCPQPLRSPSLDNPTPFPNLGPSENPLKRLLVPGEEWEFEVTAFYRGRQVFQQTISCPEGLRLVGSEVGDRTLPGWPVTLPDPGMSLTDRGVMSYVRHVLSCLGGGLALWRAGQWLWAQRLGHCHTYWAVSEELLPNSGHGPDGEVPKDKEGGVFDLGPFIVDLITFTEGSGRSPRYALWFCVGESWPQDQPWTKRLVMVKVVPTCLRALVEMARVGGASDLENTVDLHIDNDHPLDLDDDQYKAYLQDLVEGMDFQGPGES
Under “fitted relative affinity”, `GATGGTTTCGGACTGGGGACGTGCTAG` is recorded as 4.14 z-score.
`TTAGATTTTGGGACTGGATTAGTGCTA`: “fitted relative affinity” -0.321 z-score.
For `TTAGGTATCCTTCTCGTTTAGTGCTAG`, “fitted relative affinity” read 7.64 z-score.
`GACGAACTGGGCTTTCGAGACGTGCTA` — result for “fitted relative affinity”: -0.608 z-score.
`GACGAACTGGGGACTGTAGACGTGCTA` — result for “fitted relative affinity”: -0.632 z-score.
`TTAGGTTTCGAATTTCGGTTAGTGCTA` — result for “fitted relative affinity”: 5.39 z-score.
`GACGGTATCGTTATCCTGACGTGCTAG` — result for “fitted relative affinity”: 2.83 z-score.
Under “fitted relative affinity”, `GACGGAATCGGTCTCGGGACGTGCTAG` is recorded as 1.12 z-score.

Sample 3
Target: RING finger protein unkempt homolog, zinc fingers 1-6, GST-SBP tag (UNK, Homo sapiens, UniProt Q9C0B0, residues 30-357)
Sequence of UniProt Q9C0B0 (30-357, looked up): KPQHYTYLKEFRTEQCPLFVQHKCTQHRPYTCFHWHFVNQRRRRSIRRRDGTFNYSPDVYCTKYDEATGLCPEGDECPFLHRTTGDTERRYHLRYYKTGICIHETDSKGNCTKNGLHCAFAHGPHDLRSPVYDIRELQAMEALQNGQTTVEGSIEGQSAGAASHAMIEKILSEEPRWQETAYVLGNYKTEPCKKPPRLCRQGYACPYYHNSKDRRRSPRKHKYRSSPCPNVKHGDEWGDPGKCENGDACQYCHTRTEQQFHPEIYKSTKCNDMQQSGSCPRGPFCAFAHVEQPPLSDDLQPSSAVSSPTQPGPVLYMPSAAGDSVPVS
Technique: RNA Bind-n-Seq
Molecule type: RNA
Sample: in vitro
Tested at: not given
Notes: RNA with constant flanks, human and mouse sites, ends assumed
Reference: input RNA pool
Direction: higher = stronger binding
`GGGAGUUCUACAGUCCGACGAUCGUCCCUCCAGCACUUGGGAGUAAUUUGACCGACAAUGUCAUGAUCACAGUAGAUAUUAUUCCUUCAGGUUGGAAUUCAGCUGAUGGUAAAAGUGAUAAAACUAAAAGUGCGCCUUCAAGACAACAGAGGAUUGAGCAUCA` has a bound/input enrichment of 0.27 ratio.
`GGGAGUUCUACAGUCCGACGAUCCCUGACAGUAUGCUGGCCCACAUGUUUAAGGACAAAGGUGUCUGGGGAAAUAAGCAAGAUCAUAGAGGAGCUUUCUUAAUUGACCGAAGUCCUGAGUACUUCGAACCCAUUUUGAACUACCAACAGAGGAUUGAGCAUCA` gave a bound/input enrichment of 0.244 ratio.
For `GGGAGUUCUACAGUCCGACGAUCGAGACCUUUUCCAGUUAUAUCAGCGUUCAUAAUGAUAGCAAUCAAGUUGUAAAAGACAUAUUAGUAAAAGCUGAUCUUCAGACAAGUUCUCAGCGUUUAAAUCUUUCAGCCUCCAAUGCUCAACAGAGGAUUGAGCAUCA`, the bound/input enrichment was 0.783 ratio.
For `GGGAGUUCUACAGUCCGACGAUCGAGGAAGAGAAUGCUGUUUUAAAGUUCCCUGAGCAGGCAGGGACCCUGCAGAAUGCAACUACUAGCAGCUCCCUGACAGCACAUCUCAGAAGCCUCUCCAAAGGCGAAUCCCCUGUGGCUCAACAGAGGAUUGAGCAUCA`, the bound/input enrichment was 0.117 ratio.

Sample 4
Target: Replicase polyprotein 1ab, nsp13 helicase (rep, Severe acute respiratory syndrome coronavirus 2, UniProt P0DTD1)
Action: inhibitor
Tested at: 20 µM
With `CC(C)Oc1ccc2c(=O)c3cc(C(=O)O)ccc3oc2c1` the inhibition was 6.62%.
With `Clc1ccccc1CNC[C@H]1CC[C@H](CNCc2ccccc2Cl)CC1` the inhibition was -0.91%.
With `COC(=O)N[C@H](C(=O)N1CCC[C@H]1c1nc(-c2ccc3c(c2)O[C@@H](c2ccccc2)n2c-3cc3cc(-c4c[nH]c([C@@H]5CCCN5C(=O)[C@@H](NC(=O)OC)C(C)C)n4)ccc32)c[nH]1)C(C)C` the inhibition was 6.07%.
`CC1(C)O[C@@H]2C[C@H]3[C@@H]4CCC5=CC(=O)CC[C@]5(C)[C@@]4(F)[C@@H](O)C[C@]3(C)[C@]2(C(=O)CCl)O1` has an inhibition of 3.09%.
`CN1C(=O)/C(=C2/C(=O)Nc3ccccc32)c2ccccc21` gave an inhibition of 27.9%.
For `COc1ccccc1C(=O)Nc1cccc(NC(=O)c2cccc(C)c2)c1`, the inhibition was -7.21%.
`OCc1ccccc1O` has an inhibition of 3.4%.
The inhibition of `O=C(O)c1cc(=O)c2ccccc2o1` is reported as -3.35%.
For `CCC(CO)(C(=O)OC1CC2CCC(C1)[N+]2(C)C)c1ccccc1` (stereo not shown), the inhibition was 1.86%.
The inhibition of `C#C[C@]1(O)CC[C@H]2[C@@H]3CCC4=C(CCC(=O)C4)[C@H]3CC[C@@]21C` is reported as 2.4%.
The inhibition of `Nc1ncn([C@H]2C[C@H](O)[C@@H](CO)O2)c(=O)n1` is reported as -3.65%.
`N[C@@H](Cn1ccc(=O)n(Cc2ccccc2C(=O)O)c1=O)C(=O)O` has an inhibition of 8.17%.
`COc1ccc(Cl)cc1[C@]1(F)C(=O)Nc2cc(C(F)(F)F)ccc21` has an inhibition of 4.15%.
`COCCOC(=O)C1=C(C)NC(C)=C(C(=O)OC(C)C)C1c1cccc([N+](=O)[O-])c1` (stereo not shown) gave an inhibition of 4.98%.
For `O=c1[nH]cnc2c([C@@H]3N[C@H](CO)[C@@H](O)[C@H]3O)c[nH]c12`, the inhibition was 7.28%.
For `CCc1ccc(CCOc2ccc(CC3SC(=O)NC3=O)cc2)nc1` (stereo not shown), the inhibition was 3.9%.
`Cc1ccccc1-n1c(CF)nc2ccc(N)cc2c1=O` has an inhibition of 1.36%.
`O=C(O)c1ccccc1O` has an inhibition of 6.31%.
`CC(C)S(=O)(=O)NC[C@H](C)c1ccc(-c2ccc(CCNS(C)(=O)=O)cc2)cc1` gave an inhibition of 6.66%.
The inhibition of `CN1c2ccccc2C(NCCCCCCC(=O)O)c2ccc(Cl)cc2S1(=O)=O` (stereo not shown) is reported as 3.41%.

Sample 5
Target: Myc proto-oncogene protein, bHLH-zipper, MAX partner unstated (MYC, Homo sapiens, UniProt P01106, residues 368-449)
Sequence of UniProt P01106 (368-449, looked up): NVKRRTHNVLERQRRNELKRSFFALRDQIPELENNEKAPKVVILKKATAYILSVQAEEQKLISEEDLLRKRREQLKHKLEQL
Technique: protein-binding microarray
Molecule type: double-stranded DNA, one strand shown
Sample: in vitro
Tested at: not given
Notes: k-mer, scored over probes, only values ≥0.25
Direction: higher = stronger binding
`GCATGGAC` has an E-score of 0.403.
`ATAGCATG` gave an E-score of 0.351.
The E-score of `CCAACACG` is reported as 0.306.
`CGCACCCC` gave an E-score of 0.32.
The E-score of `ATGTGGCG` is reported as 0.379.

Sample 6
Cell line: HEK-293T/ACE2
Tested at: concentration not given
Time: 16 (unit not given)
Reference: vehicle
For `NCCCNCCSP(=O)(O)O`, the viability was 98.7%.
`CCn1nc(C(=O)O)c(=O)c2cc3c(cc21)OCO3` gave a viability of 101%.
`CCOC(=O)[C@H](CCc1ccccc1)N[C@@H](C)C(=O)N1[C@H](C(=O)O)C[C@@H]2CCC[C@@H]21` has a viability of 91.8%.

A few entries again (sample 1):
`Oc1cc2c(cc1C(c1ccc(C(F)(F)F)cc1)N1CCOCC1)OCO2` (stereo not shown) has an inhibition of 81.4%.
The inhibition of `O=C(/C=C/c1ccc(O)c2c1[C@@H](C(=O)O[C@H](Cc1ccc(O)c(O)c1)C(=O)O)[C@H](c1ccc(O)c(O)c1)O2)O[C@H](Cc1ccc(O)c(O)c1)C(=O)O` is reported as 90.8%.
`S=c1nn[nH]n1-c1ccccc1` has an inhibition of 97.8%.
